Experimental data pooled from the literature.
Protocols differ between the studies behind these lines. Numbers after ± are the reported error.
MAPK10: Mitogen-activated protein kinase 10 (MAPK10, Homo sapiens, UniProt P53779)
FLT1: Vascular endothelial growth factor receptor 1 (FLT1, Homo sapiens, UniProt P17948)
gyrB: DNA gyrase subunit B (gyrB, Escherichia coli, UniProt P0AES6)

SMILES	target	test	test system	setting	IC50 [nM]
CC[C@H](C)[C@H](NC(=O)[C@H](CC(N)=O)NC(=O)[C@@H](NC(=O)[C@H](Cc1c[nH]cn1)NC(=O)[C@H](CCCNC(=N)N)NC(=O)[C@@H](N)[C@@H](C)O)C(C)C)C(=O)N[C@@H](CC(C)C)C(=O)N[C@@H](CC(C)C)C(=O)N[C@@H](Cc1ccccc1)C(=O)N[C@@H](CCSC)C(=O)O	Serine/threonine-protein kinase B-raf, phosphorylated (BRAF, Homo sapiens, UniProt P15056, G469A)	enzyme activity, inhibitor, ELISA	–	–	3 to 419
CNC(=O)C1CCN(c2ccccc2NC(=O)c2ccc(-c3c(C)ccc4[nH]ncc34)c(C)c2)CC1	FGR (Homo sapiens, UniProt P09769)	target engagement in cells, BRET	–	–	5670
C#CCOc1cccc(Oc2nc3c(c(=O)n(CCCO)c(=O)n3C)n2Cc2ccc(C3(C(F)(F)F)N=N3)cc2)c1	TRPC1/TRPC5 (TRPC1/TRPC5, Homo sapiens, UniProt P48995+Q9UL62)	calcium influx, inhibitor, Fura-2	HEK T-REx expressing TRPC1/TRPC5	together with: englerin A 30 nM	6.2
O=C(/C=C(\O)C(F)(F)C(F)(F)F)c1cccnc1	Formate-nitrite transporter (Plasmodium vivax, UniProt A0A1G4GWI6)	–	–	–	230 ± 10
C#CC(=O)Nc1ccc2nc(NCCCCCN(C)C)nc(NCCCCCCN(C)C)c2c1	Histone-lysine N-methyltransferase SETDB1, triple tudor domain (SETDB1, Homo sapiens, UniProt Q15047, C385A)	binding, TR-FRET displacement	–	1 h, room temperature	31000 ± 11800
CCn1cc[n+](CC)[c]1[Au-][Cl]	trxB (Escherichia coli, UniProt P0A9P4)	enzyme activity, inhibitor, absorbance	–	with preincubation	243
O=C(Nc1cccc(C(=O)Nc2ccc(S(=O)(=O)O)c3cc(S(=O)(=O)O)cc(S(=O)(=O)O)c23)c1)Nc1cccc(C(=O)Nc2ccc(S(=O)(=O)O)c3cc(S(=O)(=O)O)cc(S(=O)(=O)O)c23)c1	Neutrophil elastase (ELANE, Homo sapiens, UniProt P08246)	enzyme activity, inhibitor, absorbance	–	pH 7.4	33400
CC(C)CN(CC(=O)NCCCCCCNC(=O)c1ccc(-c2n[nH]c3ccccc23)cc1)C(=O)CNC(=O)C1COc2ccccc2O1 (stereo not drawn)	MAPK10	ligand displacement, FP	–	–	363
Cc1ccc(S(=O)(O)=Nc2sc3c(c2C(=O)O)CCCC3)cc1	P2Y purinoceptor 14 (P2RY14, Homo sapiens, UniProt Q15391)	antagonist	–	–	28.7
Nc1nc2c(ncn2C2CC(O)C(COP(=O)(O)OCCCNC(=O)c3cccc(-c4cccc(Br)c4)c3)O2)c(=O)[nH]1 (stereo not drawn)	SAMHD1 (Homo sapiens, UniProt Q9Y3Z3, D137N)	enzyme activity, inhibitor, absorbance	–	–	250000
Oc1ccc(/C=C/c2nc(CCc3ccccc3)no2)cc1O	ALOX5 (Homo sapiens, UniProt P09917)	enzyme activity in cells, inhibitor, HPLC	–	–	930
Cc1cc(N2CC[C@@](C#N)(C3(C)CC3)C2=O)cc(C(=O)NCc2cc(F)cc(-c3cnn(C)c3)c2)n1	CHRM1 (Homo sapiens, UniProt P11229)	cell-free assay	–	–	> 10000
COc1ccc(C=CC(=O)c2cccc(O)c2)cc1	ESR2 (Homo sapiens, UniProt Q92731)	coactivator recruitment, antagonist	–	–	620
O=C(NC(=S)Nc1nc(-c2ccccc2)cc(-c2ccc(Cl)cc2)n1)c1ccc(Cl)cc1	α-amylase	enzyme activity, inhibitor	–	pH 6.9, together with: starch	1510 ± 39
CN(Cc1ccon1)C(=O)c1cccc(-c2ccc(F)cc2)c1	Acetyl-CoA synthetase (Cryptococcus neoformans, UniProt J9VFT1)	–	–	–	> 50000
COc1cc2nccc(Oc3ccc(NC(=O)NC4CC4)c(Cl)c3)c2cc1C(N)=O	FLT1	enzyme activity, inhibitor	–	–	3
Nc1ccc(-c2cc(Cl)c(Cl)c3[nH]c4c(c23)CN(C(=O)CO)CC4)cn1	Cgas (Mus musculus, UniProt Q8C6L5, I309T)	enzyme activity, inhibitor, mass spectrometry	–	–	76
COc1ccc(/C=C/C(=O)CC(=O)/C=C/c2ccc(OC)c(OC)c2)cc1	PNLIP (Sus scrofa, UniProt P00591)	enzyme activity, inhibitor, absorbance	–	–	113000

SMILES	target	test	test system	setting	IC50 [nM]
CCOC(=O)C(CC)NC(=O)CN1C(=O)S/C(=C\c2ccc(C)cc2)C1=O (stereo not drawn)	α-amylase	enzyme activity, DNSA colorimetric	–	–	> 100000
CC(=O)C1=C(C)NC(=O)NC1c1ccc(F)cc1F (stereo not drawn)	AMY2 (Sus scrofa, UniProt P00690)	enzyme activity, inhibitor	–	–	282000
CCNC(=O)[C@H]1O[C@@H](n2cnc3c(NCCCCCNC(=O)CCCCCNC(=O)COc4ccc(/C=C/C5=[N+]6C(=Cc7ccc(-c8cccs8)n7[B-]6(F)F)C=C5)cc4)ncnc32)[C@H](O)[C@@H]1O	ADORA1 (Homo sapiens, UniProt P30542)	ligand displacement in cells, radioligand	–	–	1290
CC1=CC(=O)CC(C)(C)C1C=CC(C)OC1OC(CO)C(O)C(O)C1O (stereo not drawn)	PTPN1 (Homo sapiens, UniProt P18031)	enzyme activity, inhibitor, absorbance	–	–	> 100000
N#Cc1nc2c(nc1C#N)-c1ccc(Cl)cc1C2=O	USP7 (Homo sapiens, UniProt Q93009)	–	–	–	~6000
O=C(NC1CC=C(c2cc3c(Nc4cc5ncsc5cc4F)ncnc3s2)CC1)NC1CC1 (racemic)	RIPK2 (Homo sapiens, UniProt O43353)	enzyme activity, inhibitor	–	–	10
CO[C@H]1CN(c2ccc(C(N)=O)nn2)CC[C@H]1NC(=O)c1[nH]c(C)c(Cl)c1Cl	gyrB	enzyme activity, inhibitor, ADP detection	–	–	> 10000
CC1OC(Oc2c(-c3ccc(O)cc3)oc3cc(O)cc(O)c3c2=O)C(OC(=O)C=Cc2ccc(O)cc2)C(O)C1OC(=O)C=Cc1ccc(O)cc1 (stereo not drawn)	CCR1 (Homo sapiens, UniProt P32246)	calcium flux, antagonist	293FT GCaMP6 transfected	–	> 100000
COc1ccc(-n2c(=O)c(C(=O)C3C(=O)CCCC3=O)nc3ccccc32)cc1	HPD (Arabidopsis thaliana, UniProt P93836)	enzyme activity, inhibitor, HGD-coupled	–	–	52
NS(=O)(=O)Oc1ccc2c3c(c(=O)oc2c1)CCCCCC3	Steryl-sulfatase (STS, Homo sapiens, UniProt P08842)	enzyme activity in cells, inhibitor	–	–	0.9
CCC=CCC=CCC=CCC=CCC=CCC=CCCC(=O)Oc1cc(C(=O)O[C@@H]2Cc3c(O)cc(O)cc3O[C@@H]2c2cc(OC(=O)CCC=CCC=CCC=CCC=CCC=CCC=CCC)c(O)c(OC(=O)CCC=CCC=CCC=CCC=CCC=CCC=CCC)c2)cc(OC(=O)CCC=CCC=CCC=CCC=CCC=CCC=CCC)c1O	Genome polyprotein, protease (Hepatitis C virus genotype 1a, UniProt P27958)	enzyme activity, inhibitor, fluorescence	–	–	6
O=C(/C=C/c1ccc2ccccc2c1)NO	hdac10 (Danio rerio, UniProt F1QCV2)	–	–	–	273 ± 58
N#Cc1c(N2CCOCC2)nc(NCCCN2CCOCC2)c2c1CCN(Cc1ccccc1)C2	gyrB	enzyme activity, inhibitor	–	–	28100 ± 700
Nc1ncnc2c1ncn2C1OC(COc2ccc(CCC(=O)c3ccccc3C(=O)O)cc2)C(O)C1O (stereo not drawn)	2-succinylbenzoate--CoA ligase (menE, Escherichia coli, UniProt P37353)	enzyme activity, inhibitor, MenB-MenE coupled	–	–	> 200000
CC[C@H](C)[C@@H]1NC(=O)[C@H](Cc2c[nH]c3ccccc23)NC(=O)[C@H](C)NC(=O)c2cc3cc(c2)C(=O)NC[C@@H](C(=O)NCCC(=O)NCCC(=O)N[C@@H](CCCCN)C(N)=O)NC(=O)[C@H](CCCNC(=N)N)NC(=O)[C@@H](CCCNC(=N)N)NC(=O)[C@H](CCCNC(=N)N)NC(=O)[C@H](Cc2ccc4ccccc4c2)NC(=O)[C@H](Cc2ccccc2)NC(=O)[C@H](CNC3=O)NC(=O)[C@H](C)NC(=O)[C@H](Cc2ccc(O)cc2)NC1=O	NF-kappa-B essential modulator, with IKK-beta (IKBKG, Homo sapiens, UniProt Q9Y6K9)	inhibitor, HTRF	–	–	1200 ± 200
Cc1cc(NC(=O)c2cccc(-n3cc(NC(=O)Nc4ccc(Cl)cc4)cn3)c2)ccn1	MAPK10	enzyme activity, inhibitor, TR-FRET	–	–	514
COc1cc(COC(=O)C2C(C=O)=Cc3cc4c(cc3C2c2cc(OC)c(OC)c(OC)c2)OCO4)cc(OC)c1OC (stereo not drawn)	tubulin alpha/beta (Leishmania infantum, UniProt A0A381MCS3+A4HTR0)	tubulin polymerization, inhibitor	–	37 °C	3100 ± 200
C#Cc1cccc(Nc2ncnc3cc(OC)c(OCCCN4CCOCC4)cc23)c1	FLT1	kinase activity, inhibitor	–	together with: ATP 80.8 µM	5020 ± 153
